Published values collected from several papers.
Parts stem from different laboratories: compare values within a part only.

Series 1 — method: protein-binding microarray; molecule type: double-stranded DNA, one strand shown; sample: in vitro; tested at: not given; direction: higher = stronger binding; measurement: E-score
Target: Hepatocyte nuclear factor 3-beta, forkhead domain (FOXA2, Homo sapiens, UniProt Q9Y261, residues 142-269)
Setting: k-mer, scored over probes, only values ≥0.25
Construct (chain): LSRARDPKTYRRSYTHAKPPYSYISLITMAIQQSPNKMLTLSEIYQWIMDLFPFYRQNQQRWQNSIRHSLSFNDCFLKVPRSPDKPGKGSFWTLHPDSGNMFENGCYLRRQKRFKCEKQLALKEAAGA
AATGTGCA: 0.252
AGTAGAAT: 0.284
ATCACGTA: 0.26
ATAAGTAA: 0.332
TATATGAA: 0.265
ACTTGTAT: 0.308
AAATACTG: 0.286
CTGGAATA: 0.258

Series 2 — method: universal PBM; molecule type: double-stranded DNA, one strand shown; sample: in vitro; tested at: 600 nM; direction: higher = stronger binding; measurement: E-score
Target: Sal-like protein 4, full length isoform A (SALL4, Homo sapiens, UniProt Q9UJQ4, residues 1-1053)
UniProt Q9UJQ4, sequence (whole entry, looked up): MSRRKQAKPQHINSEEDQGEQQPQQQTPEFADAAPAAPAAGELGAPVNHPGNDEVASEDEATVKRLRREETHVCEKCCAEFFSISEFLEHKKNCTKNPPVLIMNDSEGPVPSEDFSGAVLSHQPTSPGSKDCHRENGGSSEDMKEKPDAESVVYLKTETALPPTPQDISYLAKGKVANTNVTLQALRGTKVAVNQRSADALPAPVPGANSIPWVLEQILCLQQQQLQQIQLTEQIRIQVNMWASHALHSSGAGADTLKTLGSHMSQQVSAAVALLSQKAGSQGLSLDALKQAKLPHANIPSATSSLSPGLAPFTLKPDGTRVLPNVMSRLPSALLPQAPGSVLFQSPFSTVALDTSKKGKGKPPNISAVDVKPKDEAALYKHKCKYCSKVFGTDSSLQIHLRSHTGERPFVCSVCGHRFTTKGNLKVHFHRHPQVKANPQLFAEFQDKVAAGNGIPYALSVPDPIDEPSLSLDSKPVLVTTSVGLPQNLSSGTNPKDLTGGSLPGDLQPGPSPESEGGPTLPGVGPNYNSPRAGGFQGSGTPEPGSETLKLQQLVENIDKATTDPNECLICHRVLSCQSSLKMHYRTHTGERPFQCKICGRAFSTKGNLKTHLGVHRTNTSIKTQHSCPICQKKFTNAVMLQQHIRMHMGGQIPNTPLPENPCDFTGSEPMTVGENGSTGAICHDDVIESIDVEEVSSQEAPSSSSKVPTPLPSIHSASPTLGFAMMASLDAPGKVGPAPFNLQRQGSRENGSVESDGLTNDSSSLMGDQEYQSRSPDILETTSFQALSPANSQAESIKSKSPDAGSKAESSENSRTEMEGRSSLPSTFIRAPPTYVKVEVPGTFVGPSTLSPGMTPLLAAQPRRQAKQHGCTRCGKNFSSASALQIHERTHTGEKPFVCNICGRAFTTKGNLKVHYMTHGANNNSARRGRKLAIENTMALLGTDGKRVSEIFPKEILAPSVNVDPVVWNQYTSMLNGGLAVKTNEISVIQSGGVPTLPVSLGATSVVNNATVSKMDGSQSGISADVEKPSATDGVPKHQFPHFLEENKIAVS
Setting: 8-mer, flanks averaged, mean of replicates
AGGACACT: -0.204
CCGTACGA: 0.00839
GATAAGGC: 0.0304
AGCGGGAC: -0.313
GTATTCTA: 0.221

Series 3 — method: protein-binding microarray; molecule type: double-stranded DNA, one strand shown; sample: in vitro; tested at: 0.8 µM; setting: whole 60-bp probe, no competitor; direction: higher = stronger binding; measurement: fluorescence intensity
Target: Centromere-binding protein 1, full length, N-terminal tag (CBF1, Saccharomyces cerevisiae, UniProt P17106, residues 1-351)
UniProt P17106, sequence (whole entry, looked up): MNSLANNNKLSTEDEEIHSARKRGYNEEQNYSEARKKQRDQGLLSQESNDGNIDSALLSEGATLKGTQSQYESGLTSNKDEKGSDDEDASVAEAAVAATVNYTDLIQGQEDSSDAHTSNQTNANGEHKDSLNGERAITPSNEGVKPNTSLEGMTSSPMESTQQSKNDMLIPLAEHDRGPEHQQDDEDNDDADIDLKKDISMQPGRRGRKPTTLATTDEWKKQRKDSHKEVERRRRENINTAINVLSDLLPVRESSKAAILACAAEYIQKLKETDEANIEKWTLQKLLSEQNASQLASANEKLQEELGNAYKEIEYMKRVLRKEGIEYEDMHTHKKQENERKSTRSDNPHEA
CTACTTTCCTCGCGTCACGGTGTCAGTAAAAAATTCGTCTTGATTCGCTTGACGCTGCTG: 996 a.u.
GAAAATTTATTAGCTCACGTGTATACATGTATATAGGTCTTGATTCGCTTGACGCTGCTG: 5220 a.u.
GAAAGCTGGTAGCTGCTGGTGACGATTTCCAGCTAGGTCTTGATTCGCTTGACGCTGCTG: 517 a.u.

Mixed results
PhoQ, residues 284 288 289 292 302 303 TTCLQL — fold induction (PhoP, residues 12 14 15 18 19 NYFTV (Escherichia coli, UniProt P23836); Sort-seq, measured: YFP reporter; E. coli; PhoQ-PhoP variant library, together with: 10 µM Mg2+; reference: high Mg2+ state, higher = stronger signaling): 8.9
